{"data": "Experimental data pooled from the literature", "LYN": "Tyrosine-protein kinase Lyn (LYN, Homo sapiens, UniProt P07948)", "CRBN with DDB1": "Protein cereblon, with DDB1 (CRBN, Homo sapiens, UniProt Q96SW2)", "UCHL1": "Ubiquitin carboxyl-terminal hydrolase isozyme L1 (UCHL1, Homo sapiens, UniProt P09936)", "Histone acetyltransferase RTT109 with Vps75": "Histone acetyltransferase RTT109, with Vps75 (Saccharomyces cerevisiae, UniProt Q07794)", "SIRT2": "NAD-dependent protein deacetylase sirtuin-2 (SIRT2, Homo sapiens, UniProt Q8IXJ6)", "serine/threonine phosphatase Stp1": "serine/threonine phosphatase Stp1 (Staphylococcus aureus, UniProt A0A0H2XF73)", "BRD4 BD2": "Bromodomain-containing protein 4, BD2 (BRD4, Homo sapiens, UniProt O60885)", "BRD4 BD1": "Bromodomain-containing protein 4, BD1 (BRD4, Homo sapiens, UniProt O60885)", "note": "Each line is one published result; not all experiments were run side by side. Numbers after ± are the reported error."}
{"Structure (SMILES)": "COc1cc2nccc(Oc3ccc(NC(=O)c4cc5c(n(-c6ccccc6)c4=O)CCCC5=O)nc3)c2cc1OC", "target": "LYN", "test": "cell viability, CellTiter-Glo", "test system": "Ba/F3 expressing recombinant kinase", "setting": "48 h", "IC50 [µM]": "> 0.1"}
{"Structure (SMILES)": "O=C1CCC(N2Cc3cc(CNC(=O)c4ccc(F)cc4)ccc3C2=O)C(=O)N1 (stereo not shown)", "target": "CRBN with DDB1", "test": "binding, competitor, fluorescence polarization", "setting": "added: Cy5-labelled lenalidomide probe", "IC50 [µM]": 1.4}
{"Structure (SMILES)": "CCN(CC)CCCC(C)Nc1ccnc2cc(Cl)ccc12 (stereo not shown)", "target": "ULK2 (Homo sapiens, UniProt Q8IYT8)", "test": "enzyme activity, inhibitor", "setting": "added: 10 µM ATP", "IC50 [µM]": "> 10"}
{"Structure (SMILES)": "Cc1ccccc1NC(=O)C(C#N)=Cc1ccccc1Cl", "target": "UCHL1", "test": "inhibitor, ubiquitin-rhodamine cleavage", "setting": "2 h preincubation", "IC50 [µM]": "> 200"}
{"Structure (SMILES)": "O=c1nc(SCc2cc(F)cc(C(F)(F)F)c2)nc(SCc2ccc3sccc3c2)[nH]1", "target": "TOP2A (Homo sapiens, UniProt P11388)", "test": "ATPase activity, inhibitor, competitive ATPase", "setting": "added: 1 mM ATP", "IC50 [µM]": 7.1}
{"Structure (SMILES)": "O=C(CCc1ccccc1Cl)NC1CS(=O)(=O)c2ccccc21 (stereo not shown)", "target": "Histone acetyltransferase RTT109 with Vps75", "test": "enzyme activity, inhibitor, HTS, CPM-based, dose response", "IC50 [µM]": "> 125"}
{"Structure (SMILES)": "O=C(CCCCCCC(=O)Nc1ccc(CCF)cc1)NO", "target": "HDAC7 (Homo sapiens, UniProt Q8WUI4)", "IC50 [µM]": 0.085}
{"Structure (SMILES)": "Cc1cnc(-c2ccc(-c3ccc(NC(=O)Nc4c(F)cc(F)cc4F)cc3F)c3c2C(=O)NC3)[nH]1", "target": "BTK (Homo sapiens, UniProt Q06187, C481S)", "test": "enzyme activity, inhibitor, mobility shift", "setting": "added: ATP 1 mM", "IC50 [µM]": 0.0131}
{"Structure (SMILES)": "CC(C)C[C@H](NC(=O)[C@H](Cc1ccccc1)NC(=O)OCc1ccccc1)C(=O)C=O", "target": "CAPN1 (Homo sapiens, UniProt P07384)", "IC50 [µM]": "> 10"}
{"Structure (SMILES)": "Cc1nc(-c2cnc(NC(C)C)n(C)c2=O)ccc1Oc1ccnc(-c2cnn(C)c2)c1", "target": "Cytochrome P450 2C8 (CYP2C8, Homo sapiens, UniProt P10632)", "test": "direct inhibition, inhibitor", "setting": "no preincubation", "IC50 [µM]": 75}
{"Structure (SMILES)": "Cc1ccc2[nH]nc(-c3nnc(Nc4ccc(Cl)cc4)s3)c2c1", "target": "thymidine phosphorylase", "test": "enzyme activity, inhibitor, spectrophotometric", "setting": "pH 7.5, 25 °C", "IC50 [µM]": "8.6 ± 0.86"}
{"Structure (SMILES)": "O=C(Nc1cnccc1Cl)N1CCN(Cc2ccc3c(c2)OC(F)(F)O3)CC1", "target": "Faah (Rattus norvegicus, UniProt P97612)", "test": "enzyme activity, inhibitor", "test system": "rat brain membranes", "setting": "30 min preincubation", "IC50 [µM]": 0.221}
{"Structure (SMILES)": "O=C(CCl)c1c(-c2ccccc2)[nH]c2ccccc12", "target": "UCHL1", "test": "inhibitor, ubiquitin-rhodamine cleavage", "setting": "2 h preincubation", "IC50 [µM]": "> 200"}
{"Structure (SMILES)": "CN1C(=O)CCC(N2C(=O)c3cccc(NCCCCCCNC(=O)c4ccc(Oc5ccc(Cl)cc5NS(=O)(=O)c5ccc(Cl)c(C(F)(F)F)c5)cc4)c3C2=O)C1=O (stereo not shown)", "target": "CRBN with DDB1", "test": "binding, HTRF", "IC50 [µM]": 1.56}
{"Structure (SMILES)": "CCCCCCCCCCCCNC(=S)NCCCC[C@H](NC(=O)OCc1ccccc1)C(=O)N[C@@H](CCCCN)C(=O)N[C@@H](CCCNC(=N)N)C(N)=O", "target": "SIRT2", "test": "enzyme activity, inhibitor", "IC50 [µM]": "0.5 ± 0.08"}
{"Structure (SMILES)": "Cn1ccnc1-c1noc(N)n1", "target": "Histone acetyltransferase RTT109 with Vps75", "test": "enzyme activity, inhibitor, HTS, CPM-based, dose response", "IC50 [µM]": "> 125"}
{"Structure (SMILES)": "O=C(O[C@@H]1O[C@@H]2COC(=O)c3cc(O)c(O)c(O)c3-c3c(cc(O)c(O)c3O)C(=O)O[C@H]([C@H]1O)[C@@H]2O)c1cc(O)c(O)c(O)c1", "target": "serine/threonine phosphatase Stp1", "test": "enzyme activity, inhibitor", "IC50 [µM]": 6.38}
{"Structure (SMILES)": "Cc1ccc(S(=O)(=O)c2ccc([N+](=O)[O-])o2)cc1", "target": "OTUD7B (Homo sapiens, UniProt Q6GQQ9)", "test": "deubiquitinase activity, inhibitor, MALDI-TOF DUB", "setting": "30 °C, 35 min pre-incubation", "IC50 [µM]": 0.97}
{"Structure (SMILES)": "O=S1(=O)CC(N2CCCCC2)c2ccccc21 (stereo not shown)", "target": "Histone acetyltransferase RTT109 with Vps75", "test": "enzyme activity, inhibitor, HTS, CPM-based, dose response", "IC50 [µM]": "> 125"}
{"Structure (SMILES)": "CN(C)C(=O)c1cc2cnc(Nc3ccc(-c4ccc5c(=O)cc(N6CCNCC6)oc5c4)cc3)nc2n1C1CCCC1", "target": "BRD4 BD2", "test": "inhibitor", "IC50 [µM]": "> 10"}
{"Structure (SMILES)": "O=C(Nc1nc(-c2ccccc2)ns1)c1cccs1", "target": "Histone acetyltransferase RTT109 with Vps75", "test": "enzyme activity, inhibitor, HTS, CPM-based, dose response", "IC50 [µM]": "> 125"}
{"Structure (SMILES)": "CCN(c1ccccc1)S(=O)(=O)c1ccc(Cl)c(C(=O)Nc2ccccc2N2CC(C)(C)CC2=O)c1", "target": "N-myristoyltransferase (Cryptosporidium parvum, UniProt Q5CV46)", "test": "enzyme activity, inhibitor", "IC50 [µM]": "> 125"}
{"Structure (SMILES)": "CN(C)C(=O)c1cc2cnc(Nc3cc(C(=O)O)cc(-c4cccc5c(=O)cc(N6CCOCC6)oc45)c3)nc2n1C1CCCC1", "target": "BRD4 BD1", "test": "inhibitor", "IC50 [µM]": "> 10"}
{"Structure (SMILES)": "O=S1(=O)CC(Sc2ccccc2)c2ccccc21 (stereo not shown)", "target": "Histone acetyltransferase RTT109 with Vps75", "test": "enzyme activity, inhibitor, HTS, CPM-based, dose response", "IC50 [µM]": "> 125"}
{"Structure (SMILES)": "O=C(OCc1ccccc1)c1ccc(O)cc1", "target": "Histone-arginine methyltransferase CARM1 (Mus musculus, UniProt Q9WVG6)", "test": "methyltransferase activity, inhibitor", "setting": "added: histone H3 substrate, [3H]AdoMet", "IC50 [µM]": 309}
{"Structure (SMILES)": "O=C(Nc1cccc2c(=O)cc(-c3nnn[nH]3)oc12)c1ccc(OCCCCc2ccccc2)cc1", "target": "LRRC8A/LRRC8C (Homo sapiens, UniProt Q8IWT6+Q8TDW0, L134K/L136K)", "test": "ion current, inhibitor, whole-cell patch clamp", "test system": "HCT116 LRRC8-/- transfected", "setting": "at -100 mV", "IC50 [µM]": 1.9}
{"Structure (SMILES)": "CN(C)C(=O)c1cc2cnc(Nc3ccc(-c4cccc5c(=O)cc(N6CCNCC6)oc45)cc3)nc2n1C1CCCC1", "target": "BRD4 BD2", "test": "inhibitor", "IC50 [µM]": 0.132}
{"Structure (SMILES)": "CNC(=O)c1ccc(C2CCCN2c2cc(C3CCNCC3)ncn2)s1 (stereo not shown)", "target": "Catenin beta-1, with BCL9 HD2 (CTNNB1, Homo sapiens, UniProt P35222)", "test": "BCL9 binding, inhibitor, AlphaScreen", "IC50 [µM]": 6.59}
{"Structure (SMILES)": "COc1ccc(CNC2CC(=O)N(c3ccc(Br)cc3)C2=O)cc1 (stereo not shown)", "target": "Histone acetyltransferase RTT109 with Vps75", "test": "enzyme activity, inhibitor, HTS, CPM-based, dose response", "IC50 [µM]": "> 125"}
{"Structure (SMILES)": "CC1(C)CC[C@]2(C(=O)O)CC[C@]3(C)C(=CC[C@@H]4[C@@]5(C)CC[C@H](O[C@@H]6O[C@H](C(=O)O)[C@@H](O)[C@H](O[C@@H]7OC[C@@H](O)[C@H](O)[C@H]7O)[C@H]6O)C(C)(C)[C@@H]5CC[C@]43C)[C@@H]2C1", "target": "serine/threonine phosphatase Stp1", "test": "inhibitor", "IC50 [µM]": 26.1}
{"Structure (SMILES)": "CCCCCCCCCCCCNC(=S)NCCCC[C@H](NC(=O)OCc1ccccc1)C(=O)N[C@@H](C)C(=O)N[C@@H](CCCNC(=N)N)C(N)=O", "target": "SIRT2", "test": "enzyme activity, inhibitor", "IC50 [µM]": "0.47 ± 0.05"}
{"Structure (SMILES)": "Cc1ccc(-c2n/c(=N\\C(=O)c3ccc([N+](=O)[O-])cc3)sn2Cc2ccccc2)cc1", "target": "Histone acetyltransferase RTT109 with Vps75", "test": "enzyme activity, inhibitor, HTS, CPM-based, dose response", "IC50 [µM]": "> 125"}
{"Structure (SMILES)": "Cc1cc([C@@H](C)Nc2ccccc2C(=O)O)c2nc(N3CCC(F)(F)CC3)c(C#N)c(=O)n2c1", "target": "Phosphatidylinositol 4,5-bisphosphate 3-kinase catalytic subunit alpha isoform, with p85 alpha (PIK3CA, Homo sapiens, UniProt P42336, E545K)", "test": "enzyme activity, inhibitor, ADP-Glo", "setting": "added: 10 µM ATP", "IC50 [µM]": 1.51}
{"Structure (SMILES)": "CC[C@@H]1[C@H](F)C(=O)N[C@@H]1COc1nccc2cc(C(N)=O)c(OC)cc12", "target": "PTK2B (Homo sapiens, UniProt Q14289)", "test": "ATP-site binding, ActivX kinase profiling", "test system": "THP-1 cell lysate", "setting": "PYK2 activation-loop probe peptide", "IC50 [µM]": "> 5"}
{"Structure (SMILES)": "CC#CC(=O)N[C@H]1CCCN(c2c(F)cc(C(N)=O)c3[nH]c(C)c(C)c23)C1", "target": "LYN", "IC50 [µM]": 2.55}
{"Structure (SMILES)": "O=S1(=O)C=C(N2CCC3(CC2)OCCO3)c2ccccc21", "target": "Histone acetyltransferase RTT109 with Vps75", "test": "enzyme activity, inhibitor, HTS, CPM-based, dose response", "IC50 [µM]": "> 125"}
{"Structure (SMILES)": "CN(C)C(=O)c1cc2cnc(Nc3cccc(-c4cccc5c(=O)cc(N6CCOCC6)oc45)c3)nc2n1C1CCCC1", "target": "BRD4 BD1", "test": "inhibitor", "IC50 [µM]": "> 10"}
{"note": "Some of these lines once more:"}
{"Structure (SMILES)": "CC(C)C[C@H](NC(=O)[C@H](Cc1ccccc1)NC(=O)OCc1ccccc1)C(=O)C=O", "target": "CAPN1 (Homo sapiens, UniProt P07384)", "IC50 [µM]": "> 10"}
{"Structure (SMILES)": "Cc1ccc(S(=O)(=O)c2ccc([N+](=O)[O-])o2)cc1", "target": "OTUD7B (Homo sapiens, UniProt Q6GQQ9)", "test": "deubiquitinase activity, inhibitor, MALDI-TOF DUB", "setting": "30 °C, 35 min pre-incubation", "IC50 [µM]": 0.97}
{"Structure (SMILES)": "CCN(c1ccccc1)S(=O)(=O)c1ccc(Cl)c(C(=O)Nc2ccccc2N2CC(C)(C)CC2=O)c1", "target": "N-myristoyltransferase (Cryptosporidium parvum, UniProt Q5CV46)", "test": "enzyme activity, inhibitor", "IC50 [µM]": "> 125"}
{"Structure (SMILES)": "COc1ccc(CNC2CC(=O)N(c3ccc(Br)cc3)C2=O)cc1 (stereo not shown)", "target": "Histone acetyltransferase RTT109 with Vps75", "test": "enzyme activity, inhibitor, HTS, CPM-based, dose response", "IC50 [µM]": "> 125"}
{"Structure (SMILES)": "Cc1ccccc1NC(=O)C(C#N)=Cc1ccccc1Cl", "target": "UCHL1", "test": "inhibitor, ubiquitin-rhodamine cleavage", "setting": "2 h preincubation", "IC50 [µM]": "> 200"}
